Published values gathered from unrelated publications.
Compare with care: the assays were run in different laboratories. Several values in a cell are separate wells, animals, samples, runs or records. ± marks the error that the study gave.
Cytochrome P450 2A13: Cytochrome P450 2A13 (Homo sapiens, UniProt Q16696)
Chain of UniProt Q16696 (whole entry, looked up): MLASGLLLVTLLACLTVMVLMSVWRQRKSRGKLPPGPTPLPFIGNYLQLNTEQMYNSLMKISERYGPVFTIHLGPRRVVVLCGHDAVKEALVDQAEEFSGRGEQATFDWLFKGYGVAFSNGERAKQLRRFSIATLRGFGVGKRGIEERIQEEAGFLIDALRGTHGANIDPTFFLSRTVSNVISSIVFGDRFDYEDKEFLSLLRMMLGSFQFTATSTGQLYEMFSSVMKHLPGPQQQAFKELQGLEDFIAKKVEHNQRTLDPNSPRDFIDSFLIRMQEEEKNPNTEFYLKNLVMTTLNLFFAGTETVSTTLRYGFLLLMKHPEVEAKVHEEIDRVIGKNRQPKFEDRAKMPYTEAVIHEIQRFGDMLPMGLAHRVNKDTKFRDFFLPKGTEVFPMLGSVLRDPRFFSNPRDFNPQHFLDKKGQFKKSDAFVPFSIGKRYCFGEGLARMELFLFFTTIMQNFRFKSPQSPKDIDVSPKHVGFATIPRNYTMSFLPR
Uncharacterized protein: Uncharacterized protein (Equus caballus, UniProt Q38RB9)
gag-pol reverse transcriptase: Gag-Pol polyprotein, reverse transcriptase (gag-pol, Human immunodeficiency virus 1, UniProt P03366)
SCRIB PDZ3 domain: Protein scribble homolog, PDZ3 domain (SCRIB, Homo sapiens, UniProt Q14160)
Chain of UniProt Q15391 (whole entry, looked up): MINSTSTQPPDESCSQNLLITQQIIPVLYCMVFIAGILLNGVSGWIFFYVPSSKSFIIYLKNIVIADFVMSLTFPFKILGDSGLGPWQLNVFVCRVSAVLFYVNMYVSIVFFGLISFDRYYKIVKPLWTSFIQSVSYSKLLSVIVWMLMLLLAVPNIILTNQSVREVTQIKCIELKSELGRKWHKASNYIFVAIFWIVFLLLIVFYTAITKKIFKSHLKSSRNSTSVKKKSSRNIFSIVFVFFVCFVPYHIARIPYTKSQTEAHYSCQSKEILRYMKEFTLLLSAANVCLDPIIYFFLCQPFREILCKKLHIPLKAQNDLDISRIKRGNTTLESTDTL
Chain of UniProt Q14160 (whole entry, looked up): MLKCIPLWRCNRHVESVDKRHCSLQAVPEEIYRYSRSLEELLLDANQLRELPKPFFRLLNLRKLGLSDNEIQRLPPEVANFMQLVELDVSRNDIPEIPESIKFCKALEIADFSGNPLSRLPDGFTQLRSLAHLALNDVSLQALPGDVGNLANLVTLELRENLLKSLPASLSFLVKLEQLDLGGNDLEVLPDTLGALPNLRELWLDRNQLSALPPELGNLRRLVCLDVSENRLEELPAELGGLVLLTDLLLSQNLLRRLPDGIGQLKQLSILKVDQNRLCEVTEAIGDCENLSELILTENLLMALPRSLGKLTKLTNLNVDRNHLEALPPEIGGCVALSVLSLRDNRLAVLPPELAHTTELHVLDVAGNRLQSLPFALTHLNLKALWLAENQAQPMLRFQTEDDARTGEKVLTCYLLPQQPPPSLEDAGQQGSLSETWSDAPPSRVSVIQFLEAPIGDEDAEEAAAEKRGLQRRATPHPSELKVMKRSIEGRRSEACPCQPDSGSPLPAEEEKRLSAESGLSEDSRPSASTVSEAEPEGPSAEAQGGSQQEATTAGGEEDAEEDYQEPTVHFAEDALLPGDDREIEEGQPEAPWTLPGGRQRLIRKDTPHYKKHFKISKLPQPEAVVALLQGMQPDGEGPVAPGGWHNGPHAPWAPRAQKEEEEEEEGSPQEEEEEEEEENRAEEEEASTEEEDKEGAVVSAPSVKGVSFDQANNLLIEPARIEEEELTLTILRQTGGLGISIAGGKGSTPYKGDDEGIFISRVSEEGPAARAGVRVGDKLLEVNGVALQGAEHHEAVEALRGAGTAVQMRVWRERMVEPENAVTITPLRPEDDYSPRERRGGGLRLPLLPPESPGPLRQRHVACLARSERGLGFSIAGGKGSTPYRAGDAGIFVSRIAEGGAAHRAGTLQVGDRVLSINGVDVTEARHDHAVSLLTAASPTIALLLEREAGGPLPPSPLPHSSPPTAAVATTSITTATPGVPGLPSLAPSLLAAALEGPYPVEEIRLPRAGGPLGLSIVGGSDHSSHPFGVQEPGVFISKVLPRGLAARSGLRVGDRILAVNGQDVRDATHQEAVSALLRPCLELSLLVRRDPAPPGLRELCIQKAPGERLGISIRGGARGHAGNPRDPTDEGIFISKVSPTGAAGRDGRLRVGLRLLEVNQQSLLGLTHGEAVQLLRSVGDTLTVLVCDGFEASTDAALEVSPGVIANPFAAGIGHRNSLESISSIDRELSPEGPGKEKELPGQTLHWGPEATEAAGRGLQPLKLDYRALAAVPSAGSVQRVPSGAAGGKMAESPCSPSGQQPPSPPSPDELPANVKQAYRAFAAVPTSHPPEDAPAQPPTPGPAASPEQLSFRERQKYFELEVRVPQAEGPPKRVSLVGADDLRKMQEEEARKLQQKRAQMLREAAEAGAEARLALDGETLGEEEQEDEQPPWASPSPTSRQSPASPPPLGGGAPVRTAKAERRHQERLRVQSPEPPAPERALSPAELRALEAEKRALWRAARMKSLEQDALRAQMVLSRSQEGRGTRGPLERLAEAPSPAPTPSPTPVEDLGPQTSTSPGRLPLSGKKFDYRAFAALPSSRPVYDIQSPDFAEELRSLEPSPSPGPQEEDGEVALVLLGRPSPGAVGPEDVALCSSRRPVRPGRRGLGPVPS
Chain of UniProt Q14994 (whole entry, looked up): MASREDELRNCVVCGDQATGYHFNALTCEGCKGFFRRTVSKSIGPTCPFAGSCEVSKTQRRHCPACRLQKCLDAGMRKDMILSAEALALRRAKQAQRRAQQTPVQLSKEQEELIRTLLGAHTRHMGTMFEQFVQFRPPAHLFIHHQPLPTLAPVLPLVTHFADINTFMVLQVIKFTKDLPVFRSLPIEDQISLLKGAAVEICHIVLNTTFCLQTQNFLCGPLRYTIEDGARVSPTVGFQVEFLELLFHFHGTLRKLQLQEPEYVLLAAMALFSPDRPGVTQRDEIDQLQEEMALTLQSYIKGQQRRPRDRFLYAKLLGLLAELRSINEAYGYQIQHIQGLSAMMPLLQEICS
Chain of UniProt P21728 (whole entry, looked up): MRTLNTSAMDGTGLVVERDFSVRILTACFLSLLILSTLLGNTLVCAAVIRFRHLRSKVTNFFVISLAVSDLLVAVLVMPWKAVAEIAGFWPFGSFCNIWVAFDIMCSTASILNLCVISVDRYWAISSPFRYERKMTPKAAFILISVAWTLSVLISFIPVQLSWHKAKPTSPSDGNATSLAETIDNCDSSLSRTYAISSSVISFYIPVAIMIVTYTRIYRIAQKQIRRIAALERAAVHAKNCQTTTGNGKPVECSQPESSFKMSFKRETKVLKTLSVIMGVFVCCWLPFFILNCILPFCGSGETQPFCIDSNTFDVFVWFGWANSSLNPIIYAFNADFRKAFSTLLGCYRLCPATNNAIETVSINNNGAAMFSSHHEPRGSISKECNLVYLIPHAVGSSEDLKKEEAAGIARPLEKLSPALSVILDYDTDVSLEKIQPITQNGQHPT
Chain of UniProt O33336 (whole entry, looked up): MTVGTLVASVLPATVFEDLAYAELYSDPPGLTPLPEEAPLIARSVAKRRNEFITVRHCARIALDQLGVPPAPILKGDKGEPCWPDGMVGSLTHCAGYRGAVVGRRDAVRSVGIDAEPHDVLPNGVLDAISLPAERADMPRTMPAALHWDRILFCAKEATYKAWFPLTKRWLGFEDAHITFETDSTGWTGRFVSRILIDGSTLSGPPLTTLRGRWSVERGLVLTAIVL
Chain of UniProt Q8BHN3 (whole entry, looked up): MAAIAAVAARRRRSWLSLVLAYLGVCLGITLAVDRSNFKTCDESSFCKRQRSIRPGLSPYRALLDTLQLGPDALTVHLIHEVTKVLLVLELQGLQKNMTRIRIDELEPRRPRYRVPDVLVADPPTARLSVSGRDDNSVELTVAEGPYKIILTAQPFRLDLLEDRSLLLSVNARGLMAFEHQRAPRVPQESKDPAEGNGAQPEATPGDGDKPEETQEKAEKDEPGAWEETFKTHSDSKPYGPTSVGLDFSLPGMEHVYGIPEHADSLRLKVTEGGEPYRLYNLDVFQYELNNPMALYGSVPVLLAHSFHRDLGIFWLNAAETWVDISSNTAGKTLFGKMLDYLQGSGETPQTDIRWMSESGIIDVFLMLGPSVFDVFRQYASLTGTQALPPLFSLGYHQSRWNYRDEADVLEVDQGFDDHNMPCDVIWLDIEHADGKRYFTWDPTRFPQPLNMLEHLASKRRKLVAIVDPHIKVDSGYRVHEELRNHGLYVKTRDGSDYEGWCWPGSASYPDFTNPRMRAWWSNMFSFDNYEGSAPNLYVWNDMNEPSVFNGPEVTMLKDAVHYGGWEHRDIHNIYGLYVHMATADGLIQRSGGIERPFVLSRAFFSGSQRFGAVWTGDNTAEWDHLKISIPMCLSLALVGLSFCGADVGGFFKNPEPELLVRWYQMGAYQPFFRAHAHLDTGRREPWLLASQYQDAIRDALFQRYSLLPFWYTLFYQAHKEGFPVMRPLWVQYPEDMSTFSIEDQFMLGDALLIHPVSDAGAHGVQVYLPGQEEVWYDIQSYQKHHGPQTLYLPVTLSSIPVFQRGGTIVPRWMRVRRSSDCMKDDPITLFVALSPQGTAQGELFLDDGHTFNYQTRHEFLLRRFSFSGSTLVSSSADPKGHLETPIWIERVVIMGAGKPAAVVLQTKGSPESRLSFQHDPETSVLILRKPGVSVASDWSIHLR
Chain of UniProt Q00987 (whole entry, looked up): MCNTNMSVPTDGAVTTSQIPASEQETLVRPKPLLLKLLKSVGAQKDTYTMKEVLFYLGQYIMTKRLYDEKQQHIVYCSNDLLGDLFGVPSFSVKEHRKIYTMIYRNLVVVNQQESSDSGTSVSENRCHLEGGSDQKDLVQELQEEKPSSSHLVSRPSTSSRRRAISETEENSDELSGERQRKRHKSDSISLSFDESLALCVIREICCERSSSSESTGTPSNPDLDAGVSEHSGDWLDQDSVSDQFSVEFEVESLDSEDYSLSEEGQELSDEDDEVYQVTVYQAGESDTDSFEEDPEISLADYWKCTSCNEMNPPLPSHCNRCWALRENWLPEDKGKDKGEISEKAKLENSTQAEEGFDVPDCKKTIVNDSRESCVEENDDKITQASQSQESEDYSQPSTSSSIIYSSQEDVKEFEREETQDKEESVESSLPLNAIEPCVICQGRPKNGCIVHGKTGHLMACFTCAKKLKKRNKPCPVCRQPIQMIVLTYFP

Compound	tested on	assay	test system	conditions	endpoint	result
O=c1cc(-c2ccccc2)oc2c1ccc1ccccc12	Cytochrome P450 2A13	enzyme activity, inhibitor	–	20 min, pH 7.4	IC50	15 to 80 µM
CC[C@H](C)[C@H](NC(=O)[C@H](CCC(N)=O)NC(=O)[C@@H]1CCCN1C(=O)[C@H](CO)NC(=O)[C@@H](NC(=O)[C@H](CO)NC(=O)CNC(=O)[C@H](CCC(=O)O)NC(=O)[C@@H](NC(=O)[C@H](CC(=O)O)NC(=O)[C@@H](N)CCCCN)C(C)C)[C@@H](C)O)C(=O)O	Uncharacterized protein	peptide binding, competitor, competitive radioligand binding	purified horse MHC class I	pH 7	IC50	0.043 µM
CCCCCCCCNC(=N)NC(=O)Nc1c(CC)cccc1CC	4'-phosphopantetheinyl transferase PptT (Mycobacterium tuberculosis, UniProt O33336)	inhibitor	–	–	IC50	> 100 µM
O=C1CSC(c2cccc(F)c2)N1c1nc(-c2ccc(S(=O)(=O)N3CCCC3)cc2)cs1 (centres unmarked)	gag-pol reverse transcriptase	–	–	–	IC50	3.86 µM
CC[C@H](C)[C@H](NC(=O)[C@@H]1CCCN1C(=O)[C@H](Cc1c[nH]cn1)NC(=O)[C@@H](NC(=O)[C@@H](N)Cc1ccccc1)C(C)C)C(=O)N[C@@H](CC(C)C)C(=O)N[C@@H](CCC(N)=O)C(=O)N[C@@H](CO)C(=O)N[C@@H](C)C(=O)N[C@H](C(=O)O)C(C)C	SCRIB PDZ3 domain	binding, fluorescence polarization	solution	Scribble PDZ3 domain	Kd	9.8 µM
CC[C@H](C)[C@H](NC(=O)[C@H](CC(C)C)NC(=O)[C@H](CO)NC(=O)[C@H](CC(C)C)NC(=O)[C@H](CO)NC(=O)[C@@H]1CCCN1C(=O)[C@H](CC(=O)O)NC(=O)[C@H](CC(=O)O)NC(=O)[C@H](C)N)C(=O)O	Uncharacterized protein	peptide binding, competitor, competitive radioligand binding	purified horse MHC class I	pH 7	IC50	1.07 µM
O=C1CSC(c2cccc(Br)c2)N1c1cccc(S(=O)(=O)Nc2nccs2)c1 (centres unmarked)	gag-pol reverse transcriptase	–	–	–	IC50	> 4 µM
[N-]=[N+]=NCC1OC(OC2C(N)CC(N)C(OC3OC(CN)C(O)C(O)C3O)C2O)C(O)C(N)C1O (centres unmarked)	MBNL1-DM2 CCUG repeat RNA complex	complex formation, inhibitor, displacement	–	–	IC50	200 ± 5 µM
C/C1=C/C(=O)O[C@@H]2C[C@@H](CC[C@H](C)/C=C\C=C\CC1)O[C@@](O)([C@@H]1CSC(=O)N1Cc1ccccc1)C2	Actin, alpha skeletal muscle, pyrene-labeled (ACTA1, Oryctolagus cuniculus, UniProt P68135)	actin polymerization, pyrene actin	–	–	IC50	0.445 ± 0.079 µM
C[C@H]1CN(c2n[nH]c3nc(N[C@H]4CC[C@H](NS(=O)(=O)CCC(F)(F)F)CC4)ncc23)CCO1	Tight junction protein 1 (TJP1, Homo sapiens, UniProt Q07157)	biochemical	–	–	IC50	≥ 20 µM
CC(C)C[C@H](NC(=O)[C@@H](N)C(C)C)C(=O)N[C@@H](Cc1ccc(O)cc1)C(=O)N1CCC[C@H]1C(=O)N[C@@H](CCCNC(=N)N)C(=O)N[C@@H](CCC(=O)O)C(=O)NCC(=O)N[C@H](C(=O)N[C@@H](CCC(=O)O)C(=O)N[C@H](C(=O)O)C(C)C)[C@@H](C)O	SCRIB PDZ3 domain	binding, fluorescence polarization	solution	Scribble PDZ3 domain	Kd	11.7 µM
COc1cc(C(=O)N2CC[C@@H](O)[C@@H](N)C2)cc2nc(-c3cc4ccccc4n3CC3CC3)n(C)c12	D(1A) dopamine receptor (DRD1, Homo sapiens, UniProt P21728)	antagonist, TR-FRET	–	–	IC50	> 31.6 µM
COc1cc(Nc2ncc(F)c(Nc3ccc4c(n3)NC(=O)C(C)(C)O4)n2)cc(OC)c1OC	Amine oxidase [flavin-containing] B (MAOB, Homo sapiens, UniProt P27338)	–	–	–	IC50	> 10 µM
CO/N=C1\C[C@]2(C[C@@H]3C[C@@H](C/C=C(\C)C[C@@H](C)/C=C/C=C4\CO[C@@H]5[C@H](O)C(C)=C[C@@H](C(=O)O3)[C@]45O)O2)O[C@H](/C(C)=C/C(C)C)[C@H]1C	Nuclear receptor subfamily 1 group I member 3 (Homo sapiens, UniProt Q14994)	receptor activity, inhibitor	–	–	IC50	8.79 ± 1.35 µM
O=[N+]([O-])c1cc(-c2ccccc2)ccc1NCCCCCCN1C[C@H](O)[C@@H](O)[C@H](O)[C@H]1CO	Ganab (Mus musculus, UniProt Q8BHN3)	enzyme activity, inhibitor	–	added: 4-methylumbelliferyl substrate	IC50	< 0.001 µM
COc1ccc(N2C(=O)N(c3c(C)cccc3Cl)Cc3cnc(Nc4ccc(C5CCN(C)CC5)cc4OC)nc32)nc1	Proto-oncogene tyrosine-protein kinase Src (SRC, Homo sapiens, UniProt P12931)	kinase activity	–	0.5 µM	inhibition	95%
CC[C@H](C)[C@H](NC(=O)[C@H](Cc1ccccc1)NC(=O)[C@H](CCC(=O)O)NC(=O)[C@H](CCCNC(=N)N)NC(=O)[C@H](C)NC(=O)[C@H](C)NC(=O)[C@H](CCC(N)=O)NC(=O)[C@H](CCC(=O)O)NC(=O)[C@H](CCC(=O)O)NC(=O)[C@H](CC(C)C)NC(=O)[C@H](Cc1ccc(O)cc1)NC(=O)[C@H](CO)NC(=O)[C@H](CO)NC(=O)[C@@H](NC(=O)[C@H](CC(=O)O)NC(=O)[C@H](CO)NC(=O)[C@@H](NC(=O)[C@H](Cc1ccccc1)NC(=O)[C@@H](NC(=O)CNC(=O)[C@H](CCC(=O)O)NC(=O)[C@H](C)NC(=O)CCc1c[nH]cn1)[C@@H](C)O)[C@@H](C)O)C(C)C)C(=O)N[C@@H](C)C(=O)N[C@@H](Cc1c[nH]c2ccccc12)C(=O)N[C@@H](CC(C)C)C(=O)N[C@H](C(=O)N[C@@H](CCCNC(=N)N)C(=O)NCC(=O)N[C@@H](CCCNC(=N)N)C(=O)N[C@@H](CCCCNC(=O)COCCOCCNC(=O)COCCOCCNC(=O)CC[C@H](NC(=O)CCCCCCCCCCCCCCCCC(=O)O)C(=O)O)C(=O)NCC(=O)NCC(=O)N[C@@H](CO)C(=O)N[C@@H](CCCCNc1c(NCCCCCN(O)C(=O)CCC(=O)NCCCCCN(O)C(=O)CCC(=O)NCCCCCN(O)C(C)=O)c(=O)c1=O)C(=O)O)C(C)C [zirconium-89 labelled]	–	–	rat, colon	iv, 3 nmol/kg, 4 h, ex vivo	tissue uptake	0.43 %ID/g
CC(=O)N1C[C@@H]2C[C@H]1C[C@H]2c1ccc(-c2cc(C(=O)O)cc3cc(-c4ccc(C(F)(F)F)cc4)ccc23)cc1 (racemic)	P2Y purinoceptor 14 (P2RY14, Homo sapiens, UniProt Q15391)	antagonist, flow cytometry	CHO expressing target	added: fluorescent antagonist 20 nM	IC50	0.029 µM and 0.0294 µM
Cc1c2ccccc2c(C)c2c1ccc1ccccc12	Cytochrome P450 2A13	enzyme activity, inhibitor	–	20 min, pH 7.4	IC50	> 200 µM
CCOC(=O)[C@H]1Cc2c(cc([N+](=O)[O-])cc2[N+](=O)[O-])[C@@H](O)[C@@]12C(=O)Nc1cc(Br)ccc12	E3 ubiquitin-protein ligase Mdm2 (MDM2, Homo sapiens, UniProt Q00987)	–	–	–	IC50	0.85 ± 0.11 µM

Some of these lines once more:
Compound	tested on	assay	test system	conditions	endpoint	result
O=c1cc(-c2ccccc2)oc2c1ccc1ccccc12	Cytochrome P450 2A13	enzyme activity, inhibitor	–	20 min, pH 7.4	IC50	15 to 80 µM
CC[C@H](C)[C@H](NC(=O)[C@H](CCC(N)=O)NC(=O)[C@@H]1CCCN1C(=O)[C@H](CO)NC(=O)[C@@H](NC(=O)[C@H](CO)NC(=O)CNC(=O)[C@H](CCC(=O)O)NC(=O)[C@@H](NC(=O)[C@H](CC(=O)O)NC(=O)[C@@H](N)CCCCN)C(C)C)[C@@H](C)O)C(=O)O	Uncharacterized protein	peptide binding, competitor, competitive radioligand binding	purified horse MHC class I	pH 7	IC50	0.043 µM
CCCCCCCCNC(=N)NC(=O)Nc1c(CC)cccc1CC	4'-phosphopantetheinyl transferase PptT (Mycobacterium tuberculosis, UniProt O33336)	inhibitor	–	–	IC50	> 100 µM
